Experimental data collected from several papers.
Lines come from different studies, so protocols differ. “And” joins repeats or separate records; there may be more than shown. ± gives the spread as reported. Converted amounts (≈) assume the structure as drawn.

Compound	tested on	assay	system	setting	scale	endpoint	result
Oc1ccc(N=Nc2ccc(-c3nc4ccccc4s3)cc2)c(O)c1	–	ABTS radical scavenging	–	unit not given	reference: Trolox	TEAC	> 2
CCO[C@H]1CCN(Cc2c(OC)cc(C)c3[nH]ccc23)[C@H](c2ccc(C(=O)O)cc2)C1	–	–	PNH patients, blood	oral, 25 mg then 100 mg, week 8, mean absolute change	reference: baseline	C3d-positive type III RBCs	-1.3%
CC(=O)NC[C@H]1CN(c2ccc(N3CCOCC3)c(F)c2)C(=O)O1	Enterococcus faecalis	agar dilution	vancomycin-susceptible, 74 isolates	–	–	MIC50	1 µg/mL (≈ 2.96 µM)
CN(C)C(=O)c1cc2cnc(Nc3ccc(N4CCNCC4)cn3)nc2n1C1CCCC1	–	RNA-seq GSEA, refers to: HALLMARK_ALLOGRAFT_REJECTION	MB002 tumour	concentration not given, in vivo	reference: vehicle, direction not given	GSEA enrichment score	-0.247
CCCNc1nc(Nc2ccc(C#N)cc2)ncc1C#CCCCNC(=O)[C@H](C)N(C)C(=O)/C=C/CN(C)C	–	–	human	50 mg twice daily, after 4 cycles	–	marrow blasts	1%
Cn1cc(-c2ccc(-c3cncc(Cl)c3N3CCC4(CCNC4=O)CC3)cc2)cn1	COLO 205	gene expression, microarray, refers to: TIMP2 mRNA	–	concentration not given, 6 h	reference: untreated cells	log2 fold change	3.14
OC(CCN1CCCCC1)(c1ccccc1)C1CC2C=CC1C2 (centres unmarked)	–	resting-state EEG	healthy elderly humans	oral, 2 mg, eyes closed, LS mean	reference: baseline	change, beta power, EEG O1-Pz	-1.9%
Cc1ccc(C(=O)OCc2ccc([C@@H](CN)C(=O)Nc3ccc4cnccc4c3)cc2)c(C)c1	–	tonometry	NZW rabbit, magnetic bead-induced ocular hypertension	ocular, 0.02%, 24 h	–	IOP	37.5 mmHg
N#Cc1ccc2c(-c3ccncc3)c(-c3ccc(F)cc3)nn2c1	–	kinase binding, competitor, MIB/MS competition, refers to: CEK1	Candida albicans cell lysate	10 µM	reference: DMSO	log2 fold change	0.718
Cn1cc(Nc2nccc(-c3ccc4c(c3)CN(C3COC3)CC[C@H]4NC(=O)c3cn(C(C)(C)C)nn3)n2)cn1	–	refers to: xenobiotic metabolism signaling	splenic B cells, mice	30 mg/kg, IgD-activated in vivo	reference: vehicle, direction not given	pathway activation z-score	3.41
CSCCNc1nc(SCCC(F)(F)F)nc2c1ncn2[C@@H]1O[C@H](COP(=O)(O)OP(=O)(O)C(Cl)(Cl)P(=O)(O)O)[C@@H](O)[C@H]1O	–	platelet aggregation, light transmission aggregometry	human patients, platelet-rich plasma	dose not given, 4 to 6 h, added: TRAP 15 µM	–	inhibition	14.9 ± 17.8%
N#Cc1ccc2c(c1)[C@H]1CCCN(C(=O)c3ccc4[nH]cnc4c3)[C@H]1C2	–	–	human males	80 mg, day 7	–	SHBG level	33.2 nmol/L
Cc1cc(F)cc2c(CCC(=O)N[C@@H]3C(=O)NC[C@H]3O)c(-c3ccc(F)cc3)[nH]c12	–	–	mice, APOL1 G2, single copy	day 5, before treatment, added: IFNγ plasmid injection	–	UACR	983 µg/mg and 361 µg/mg and 710 µg/mg and 911 µg/mg and 531 µg/mg
C[C@@H](NC(=O)N1C(=O)[C@H](Cc2ccnc(N)c2)[C@H]1C(=O)O)C1CCCCC1	–	–	human	iv infusion, 1.5 mg/kg/h, 24 h, unit not given	reference: baseline	PT Emax	1.06
C=CC[C@@H]1c2ccc(OC)c(OC)c2CN2CCc3cc4c(cc3[C@H]12)OCO4	–	–	P2rx7+/+ mouse, S. aureus wound infection	dose not given, day 0	reference: day 0	relative wound size	1
COc1cc2cc(-c3ccc(CC(=O)Nc4cc(C(C)(C)C(F)(F)F)no4)cn3)cnc2cc1OC	–	RECIST v1.1	human RET-altered solid tumours	12 75 mg tablets, phase I	–	best overall response SD	67%
CC(C)C[C@H](NC(=O)[C@@H](Cc1c[nH]c2ccccc12)NC(=O)[C@H](Cc1ccc(O)cc1)NC(=O)[C@H](CO)NC(=O)[C@H](Cc1c[nH]c2ccccc12)NC(=O)[C@H](Cc1c[nH]cn1)NC(=O)[C@@H]1CCC(=O)N1)C(=O)N[C@@H](CCCNC(=N)N)C(=O)N1CCC[C@H]1C(=O)NCC(N)=O	–	Tanner staging	Chinese girls, central precocious puberty	intramuscular, 22.5 mg day 1, month 6, month 12	reference: baseline	stable pubic hair stage	87.1%
C[C@H]1C[C@H]2CSC(N)=N[C@@]2(c2nc(NC(=O)c3ccc(OC(F)F)cn3)cs2)CO1	–	refers to: total Aβ	healthy adults, plasma	40 mg single dose, 4 h post-dose	reference: placebo	percent change from baseline	-36.8%
CC#CC(=O)N[C@H]1CCCN(c2c(F)cc(C(N)=O)c3[nH]c(C)c(C)c23)C1	–	refers to: IgM	human	0.3 mg once daily, day 21	reference: baseline	serum immunoglobulin	5.6 % change
COc1c(C)cnc(Cn2cc(C#CCCOP(=O)(O)O)c3c(Cl)nc(N)nc32)c1C	–	RECIST	colorectal cancer patients	dose not given	–	stable disease duration	6 months
CC(C)[C@H](C(=O)Nc1ccc(C(=O)NO)cc1)c1ccccc1	–	volumetric MRI	human, right internal auditory canal	dose not given, 224 days	–	tumour volume	20.2 cm³
O[C@H]1CCCN[C@@H]1CCCn1cnc2c(Cl)c(Cl)ccc21	–	ELISA, refers to: Pro-C3	healthy human volunteers, serum	intraduodenal, 100 mg twice daily, day 14, multiple ascending dose	–	maximum reduction	15.6%
CCCN(O)N=Nc1ccc(S(=O)(=O)Nc2cc(C)on2)cc1	–	carrageenan-induced paw edema	Wistar rat	oral, 100 mg/kg, 1 h after carrageenan, added: carrageenan 1% subplantar	higher = more edema	paw edema volume	5.71 ± 0.81 a.u.
CC[C@@H]1[C@H](F)C(=O)N[C@@H]1COc1nccc2cc(C(N)=O)c(OC)cc12	–	ATP-site probe binding, ActivX profiling, refers to: PKD1, PKD2	THP-1 cell lysate	0.2 mM, Lys2 site	–	inhibition	-8.9%

Compound	tested on	assay	system	setting	scale	endpoint	result
C=CCn1c(=O)c2cnc(Nc3ccc(N4CCN(C)CC4)cc3)nc2n1-c1ccc2c(n1)[C@@](O)(CC)CC2	–	–	MDA-MB-468 xenograft, CB17 SCID mice	oral, 80 mg/kg, day 56, once daily x 56	–	tumour growth inhibition	87.1%
Cc1oncc1C(=O)Nc1ccc(C(F)(F)F)cc1	–	refers to: dihydroorotate	female CD-1 mice, pooled urine	oral, 30 mg/kg daily, 0-8 h after dose 3	–	DHO concentration	3090 ± 134 µM
Cc1cccc(N(O)N=Nc2ccc(S(=O)(=O)Nc3nccs3)cc2)c1	–	carrageenan-induced paw edema	Wistar rat	oral, 100 mg/kg, 0 h (baseline), added: carrageenan 1% subplantar	higher = more edema	paw edema volume	3.61 ± 0.32 a.u.
COc1ccc(-c2cncc(N[C@@H](C)c3cccc(NC(=O)c4cncc(C)c4)c3)n2)cc1OC	–	refers to: rno-miR-142-5p	rat SU5416/hypoxia model, lung	dose not given, unit not given	reference: SU5416/hypoxia vehicle	delta delta Ct	0.425
N#Cc1ccc2c(c1)[C@H]1CCCN(C(=O)c3ccc4[nH]cnc4c3)[C@H]1C2	–	refers to: HDL	human	80 mg once daily, day 28, adjusted mean	reference: placebo	change from baseline	-5.16 mg/dL
Cc1cccc(N(O)N=Nc2ccc(S(=O)(=O)Nc3onc(C)c3C)cc2)c1	–	carrageenan-induced paw edema	Wistar rat	oral, 100 mg/kg, 4 h after carrageenan, added: carrageenan 1% subplantar	higher = more edema	paw edema volume	4.42 ± 0.83 a.u.
CC(C)C[C@H](NC(=O)C[C@H](O)[C@H](CC(C)C)NC(=O)[C@H](Cc1c[nH]cn1)NC(=O)CNC(=O)[C@@H](NC(=O)[C@H](C)NC(=O)[C@H](Cc1c[nH]c2ccccc12)NC(=O)[C@H](CCC(N)=O)NC(=O)[C@@H](Cc1ccccc1)NC(=O)COCCOCCNC(=O)CCC(C(=O)O)N1CCN(CC(=O)O)CCN(CC(=O)O)CCN(CC(=O)O)CC1)C(C)C)C(N)=O (some centres unmarked) [lutetium-177 labelled]	–	–	BALB/c nu/nu mice, large intestine	500 pmol, 1 h, added: PA 300 µg	–	tissue uptake	0.6 ± 0.1 %ID/g
COc1cccc2c1C(=O)c1c(O)c3c(c(O)c1C2=O)C[C@@](O)(C(=O)CO)C[C@@H]3O[C@H]1C[C@H](N)[C@H](O)[C@H](C)O1	–	cell viability, MTT	normal colonocytes, rat	72 h	–	IC50	701 ± 43 nM
CC(=O)N(C)[C@H]1CCN(C(=O)c2cnc3c(c2)C[C@](C)(c2ccc(F)cc2)N3)C1	vanin activity	–	human, whole blood ex vivo stimulated	15 mg, 1 h post-dose	reference: baseline	pantothenic acid level	17.4%
COc1cccc2c(N3CCC(CCP(=O)(O)O)CC3)ncnc12	–	–	mouse, serum	–	–	time to IFN-γ detection	≤ 8 h
CO[C@H]1CC[C@H](N2C(=O)CNc3ncc(-c4ccc(C(C)(C)O)nc4)nc32)CC1	–	flow cytometry	stimulated B cells, human, blood	30 mg single dose, 24 h, mean	reference: baseline	pS6RP change from baseline	8.6%
O=C(O)CNC(=O)Cc1ccccc1	–	–	ventricular cardiomyocytes, C57BL/6 mouse	dose not given, 0.728 s	–	sarcomere length	1.72 µm
COc1nc(NCc2cn(-c3ccc(C(N)=O)cc3)nn2)nc(OC)n1	–	cell viability, MTT	normal colonocytes, rat	72 h	–	IC50	19.9 ± 3.06 nM
CCCCOc1nc(N)c2c(n1)N(Cc1cccc(CN3CCCC3)c1)CC(=O)N2	–	flow cytometry	human, blood	dose not given, three dosing periods	reference: baseline	immune cell activation markers	no effect
N=C(N)NCCC[C@H](NC(=O)[C@H](CCCNC(=N)N)NC(=O)[C@H](CCCCN)NC(=O)[C@H](CCC(N)=O)NC(=O)[C@H](CCCCN)NC(=O)[C@H](Cc1ccc(O)cc1)NC(=O)[C@@H](N)CCCCN)C(=O)N[C@@H](CO)C(=O)N[C@@H](Cc1ccc(O)cc1)C(=O)N[C@@H](CCCCN)C(=O)O	–	–	dentin hypersensitivity patients	5 µg/tooth single, day 22, unit not given	reference: baseline	median tactile threshold change	-1
Cc1n[nH]c2ccc(-c3cc(OC[C@@H](N)Cc4ccccc4)cnc3-c3ccoc3)cc12	–	kinase binding, competitor, MIB/MS competition, refers to: RIM11	Candida albicans cell lysate	10 µM	reference: DMSO	log2 fold change	-3.89
Cc1cccc(N(O)N=Nc2ccc(S(=O)(=O)Nc3cc(C)on3)cc2)c1	–	carrageenan-induced paw edema	Wistar rat	oral, 100 mg/kg, 1 h after carrageenan, added: carrageenan 1% subplantar	higher = more edema	paw edema volume	5.83 ± 0.77 a.u.
c1coc(-c2n[nH]cc2-c2ccnc3ccccc23)c1	HRK1 (Candida albicans)	kinase binding, MIB/MS competition	Candida albicans lysate	1 µM	reference: DMSO	log2 fold change	-0.24
CCN(O)N=Nc1ccc(S(=O)(=O)Nc2nccs2)cc1	–	carrageenan-induced paw edema	Wistar rat	oral, 100 mg/kg, 1 h after carrageenan, added: carrageenan 1% subplantar	higher = more edema	paw edema volume	6.31 ± 0.76 a.u.
Oc1ccccc1-c1n[nH]cc1-c1ccnc2ccccc12	CDC5 (Candida albicans)	kinase binding, MIB/MS competition	Candida albicans lysate	1 µM	reference: DMSO	log2 fold change	0.15
CC(C)NCC(O)c1ccc(O)c(O)c1 (centres unmarked)	–	–	ventricular cardiomyocytes, C57BL/6 mouse	dose not given, 0.152 s	–	sarcomere length	1.56 µm
CCN1[C@@H](C(=O)NC23CCC(C(=O)O)(CC2)CC3)[C@H](c2cccc(Cl)c2F)[C@]2(C(=O)Nc3cc(Cl)ccc32)C12CCCCC2	–	–	human	100 mg	–	time to partial response	32 weeks
O=S(=O)(Nc1nccs1)c1ccc(N=NN(O)c2ccccc2)cc1	–	carrageenan-induced paw edema	Wistar rat	oral, 100 mg/kg, 3 h after carrageenan, added: carrageenan 1% subplantar	higher = more edema	paw edema volume	5.78 ± 0.41 a.u.
